Experimental data collected from several papers.
Parts stem from different laboratories: compare values within a part only.

Block 1
Target: Interferon regulatory factor 5, full length, phosphomimetic (IRF5, Homo sapiens, UniProt Q13568-2, residues 1-514, K96S/S451D/S453D/S456D/S462D)
Method: protein-binding microarray
Molecule type: double-stranded DNA, one strand shown
Sample: in vitro
Concentration: 250 nM
Setting: 60-bp whole probe
Added: salmon DNA 0.4 mg/ml
Relative to: random background probes
Direction: higher = stronger binding
Shared flanks, not repeated: GCCTAGCAC … GTCTTGATTCGCTTGACGCTGCTG
| Sequence | log fluorescence |
| --- | --- |
| GCTGTCATCGATTTCTTCCCGTGCTAG | 0.701 z-score |
| TTAGGTATCGGACTCGGTTAGTGCTAG | 1.48 z-score |
| TTAGATTTCGAGTATCGATTAGTGCTA | 7.65 z-score |
| GACGGTTTCCTTTCCCTTACGTGCTAG | 1.85 z-score |
| GACGGTTCCGGTTTCAGGACGTGCTAG | 2.05 z-score |
| AGAGCTTGTAGCCATCTTTGGTGCTAG | -0.467 z-score |
| TCAGATTTCAGTATCGATTAGTGCTAG | 8.35 z-score |
| GACGGTTTCGACACTGGGGAAGTGCTA | 5.29 z-score |

Block 2
Target: Prothrombin, mature alpha-thrombin (F2, Homo sapiens, UniProt P00734)
Method: aptamer microarray, sandwich
Molecule type: DNA with 2'F-ANA
Sample: in vitro
Concentration: 200 nM
Setting: whole 15-mer aptamer, many near background
Added: Cy3 exosite-II aptamer, 400 nM
Direction: higher = stronger binding
Sequence: GGTTGGTGTGGTTGG
| Modification | mean fluorescence intensity |
| --- | --- |
| 2'F-ANA at 5 8 10 12 13 14 15 | 135 a.u. |
| 2'F-ANA at 1 2 3 5 8 11 | 56 a.u. |
| 2'F-ANA at 1 7 9 10 13 | 48.7 a.u. |
| 2'F-ANA at 2 7 8 11 12 15 | 729 a.u. |
| 2'F-ANA at 1 2 3 7 10 11 12 13 | 85.5 a.u. |
| 2'F-ANA at 1 4 8 9 10 13 14 15 | 46.5 a.u. |
| 2'F-ANA at 1 2 6 8 9 10 11 13 14 | 77.4 a.u. |
| 2'F-ANA at 1 3 5 7 9 12 14 15 | 59 a.u. |

Block 3
Target: Krueppel-like factor 3, full length (KLF3, Homo sapiens, UniProt P57682, residues 1-345)
UniProt P57682, sequence (whole entry, looked up): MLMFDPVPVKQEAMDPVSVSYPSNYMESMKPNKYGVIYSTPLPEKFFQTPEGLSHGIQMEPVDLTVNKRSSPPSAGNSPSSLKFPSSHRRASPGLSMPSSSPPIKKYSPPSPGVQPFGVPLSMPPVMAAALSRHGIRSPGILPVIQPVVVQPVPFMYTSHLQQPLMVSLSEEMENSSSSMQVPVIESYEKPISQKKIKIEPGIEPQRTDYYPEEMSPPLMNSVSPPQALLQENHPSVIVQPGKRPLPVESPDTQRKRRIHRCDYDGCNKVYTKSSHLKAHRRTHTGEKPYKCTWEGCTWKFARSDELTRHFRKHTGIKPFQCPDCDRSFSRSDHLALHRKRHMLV
Method: protein-binding microarray
Molecule type: hairpin DNA
Sample: in vitro
Concentration: not given
Setting: whole hairpin DNA, median over replicate spots
Relative to: not given
Direction: higher = stronger binding
| Sequence | median fluorescence |
| --- | --- |
| GAGGCCGAGCGCGCCCAGCCTCCTGGCTGGGCGCGCTCGGCCTCACACTC | 8460 a.u. |
| GAGGCCCGCCACGCCCAGCCTCCTGGCTGGGCGTGGCGGGCCTCACACTC (5mC at 7) | 9080 a.u. |
| GAGGCCTACCACGCCCAGCCTCCTGGCTGGGCGTGGTAGGCCTCACACTC | 9310 a.u. |
| GAGGCCGACCGGGCCCAGCCTCCTGGCTGGGCCCGGTCGGCCTCACACTC | 8010 a.u. |
| GAGGCCGACCGCGCCCAGCCTCCTGGCTGGGCGCGGTCGGCCTCACACTC (5mC at 10 12) | 8210 a.u. |
| GAGGCCGACCACGCCCAGCCTCCTGGCTGGGCGTGGTCGGCCTCACACTC (5mC at 32) | 9080 a.u. |
| GAGGCCGACCGCTCCCAGCCTCCTGGCTGGGAGCGGTCGGCCTCACACTC | 8270 a.u. |
| GAGGCCGGCCGCGCCCAGCCTCCTGGCTGGGCGCGGCCGGCCTCACACTC | 8650 a.u. |

Single results of other studies
| Compound | organism | observed | concentration | time | setting | measurement | result |
| --- | --- | --- | --- | --- | --- | --- | --- |
| CC(C(=O)O)c1ccc(-c2ccccc2)c(F)c1 (stereo not shown) | Sarcocystis neurona | parasite growth | 10 µM | 96 h | first screen | inhibition | 0.4% |

Some of these lines once more (block 2):
| Modification | mean fluorescence intensity |
| --- | --- |
| 2'F-ANA at 1 2 3 7 10 11 12 13 | 85.5 a.u. |
| 2'F-ANA at 1 3 5 7 9 12 14 15 | 59 a.u. |
